Published values of several laboratories.
“And” joins repeats or separate records; there may be more than shown. ± marks the error that the study gave.

Under “patients with hyponatremia”, `COc1ncnn2ccc(-c3cnc4nc(C)n(Cc5nnc([C@@H](C)F)o5)c4c3)c12` is recorded as 0% (human; oral, dose not given, grade 5).
For `C=CC(=O)N1CC[C@H](n2nc(C#Cc3cc(OC)cc(OC)c3)c3c(N)ncnc32)C1`, “adverse drug reaction incidence” read 14% (patients with advanced solid tumours; oral, dose not given, Dysgeusia, any grade, QD, all patients).
The tissue uptake of `CC[C@H](C)[C@H](NC(=O)[C@H](Cc1ccccc1)NC(=O)[C@H](CCC(=O)O)NC(=O)[C@H](CCCNC(=N)N)NC(=O)[C@H](C)NC(=O)[C@H](C)NC(=O)[C@H](CCC(N)=O)NC(=O)[C@H](CCC(=O)O)NC(=O)[C@H](CCC(=O)O)NC(=O)[C@H](CC(C)C)NC(=O)[C@H](Cc1ccc(O)cc1)NC(=O)[C@H](CO)NC(=O)[C@H](CO)NC(=O)[C@@H](NC(=O)[C@H](CC(=O)O)NC(=O)[C@H](CO)NC(=O)[C@@H](NC(=O)[C@H](Cc1ccccc1)NC(=O)[C@@H](NC(=O)CNC(=O)[C@H](CCC(=O)O)NC(=O)[C@H](C)NC(=O)CCc1cnc[nH]1)[C@@H](C)O)[C@@H](C)O)C(C)C)C(=O)N[C@@H](C)C(=O)N[C@@H](Cc1c[nH]c2ccccc12)C(=O)N[C@@H](CC(C)C)C(=O)N[C@H](C(=O)N[C@@H](CCCNC(=N)N)C(=O)NCC(=O)N[C@@H](CCCNC(=N)N)C(=O)N[C@@H](CCCCNC(=O)COCCOCCNC(=O)COCCOCCNC(=O)CC[C@H](NC(=O)CCCCCCCCCCCCCCCCC(=O)O)C(=O)O)C(=O)NCC(=O)NCC(=O)N[C@@H](CO)C(=O)N[C@@H](CCSC)C(=O)N[C@H](C(=O)N[C@@H](CCCCNc1c(NCCCCCN(O)C(=O)CCC(=O)NCCCCCN(O)C(=O)CCC(=O)NCCCCCN(O)C(C)=O)c(=O)c1=O)C(=O)O)C(C)C)C(C)C` [zirconium-89 labelled] is reported as 1.31 %ID/g (ex vivo gamma counting; male Sprague-Dawley rats, liver; intravenous, 1 nmol, 72 h, mean of 3 animals).
`CCCCCCCCCCC[C@H](OC1OC[C@H](O)[C@@H](O)[C@@H]1O)[C@H](O)[C@H](O)C[C@@H]1CC(=O)N[C@H](CO)C(=O)N[C@H]([C@H](O)c2ccc(O)cc2)C(=O)N[C@H](CCN)C(=O)NCC(=O)N[C@@H](CC(N)=O)C(=O)N[C@@H](CO)C(=O)N[C@@H]([C@H](O)C(N)=O)C(=O)N1` (some centres unmarked) — result for “measured concentration, benchtop”: 780 ng/mL (LC-MS/MS; rabbit plasma, sodium citrate; 800 ng/mL, room temperature).
The eosinophil count of `COc1ccc2nc3cc(Cl)ccc3c(Nc3cc(CN4CCCC4)c(O)c(CN4CCCC4)c3)c2n1` is reported as 1.49 10⁹/L (mouse, blood; intraperitoneal, 14 mg/kg).
Under “grade ≥3 platelet decrease incidence”, `Cn1cncc1-c1c(F)cncc1NC(=O)c1c(N)nn2cc(F)cnc12` is recorded as 0% (human patients; oral, 180 mg once daily).
The linearity index of `C[C@]1(CO)Cc2ncn(-c3ccc(C#N)c(Cl)c3)c2C(=O)O1` is reported as 107% (human, plasma; 10 mg multiple doses; reference: dose-proportional exposure).
For `CO[C@H]1C[C@@H]2CC[C@@H](C)[C@@](O)(O2)C(=O)C(=O)N2CCCC[C@H]2C(=O)O[C@H]([C@H](C)C[C@@H]2CC[C@@H](OC(=O)NCCOCCOCCOCCOCCOCCOCCOCCOCCC(=O)N3CCc4cc(Cn5nc(-c6ccc7oc(N)nc7c6)c6c(N)ncnc65)ccc4C3)[C@H](OC)C2)C[C@@H](O)[C@H](C)/C=C(\C)[C@@H](O)[C@@H](OC)C(=O)[C@H](C)C[C@H](C)/C=C/C=C/C=C/1C`, “any TEAE incidence” read 100% (phase 1 dose escalation; advanced solid tumour patients; intravenous, 16 mg weekly, any grade).
Under “patients with adverse event”, `C[C@@H]1OC(=O)NN=C1c1ccc(-c2ccc(F)cc2)c(C(F)(F)F)c1` is recorded as 100% (phase I trial, item: Nausea worst grade 1; human patients; 10 mg loading then 0.5 mg daily).
For `COc1c(OCCCN2CCOCC2)ccc2c1N=C(NC(=O)c1cnc(N)nc1)N1CCN=C21`, “systolic blood pressure” read 121 ± 15.7 mmHg (human, solid tumour expansion cohort; 0.8 mg/kg, day 2, 25 h after infusion start).
`O=C1Nc2cc3[nH]nc(-c4ccncc4)c3cc2CN1Cc1ccccc1`: “patients with infusion reaction” 22% (CTCAE v4.03; advanced solid tumour patients; intravenous, 6.4 mg/kg).
The plasma concentration of `Cc1ccccc1C(=O)NN=Cc1ccc(O)c(Br)c1` is reported as 172 ng/mL (C3H/HeN mouse IN model, plasma; intravenous, 1.6 mg/kg, 30 min).
Under “abdominal distension incidence”, `COc1cc2c(Oc3ccc4[nH]c(C)cc4c3F)ccnc2cc1OCC1(N)CC1` is recorded as 25% (paediatric refractory sarcoma patients; 10 mg).
With `CC(C)C[C@H](NC(=O)[C@H](C)NC(=O)[C@@H](NC(=O)[C@H](CCCNC(=N)N)NC(=O)[C@H](CC(C)C)NC(=O)[C@H](Cc1c[nH]c2ccccc12)NC(=O)[C@@H]1CCCN1C(=O)[C@@H](N)CCCCN)C(C)C)C(=O)N[C@@H](CS)C(=O)N1CCC[C@H]1C(=O)NCC(=O)O` the hemolysis was 1.07% and 0.57% and 1.04% (sheep red blood cells; 64 µM, 1 h, 37 °C).
Under “subjects with Photophobia adverse event”, `O=C(Nc1ccccc1)C1CCN(C(=O)Oc2cccnc2)CC1` is recorded as 0% (adverse event reporting; healthy women; oral, 20 mg, 7 days).
`Clc1cc2c(cc1Cl)Oc1c(ccc(Cl)c1Cl)O2`: “dose fraction in milk fat” 86.7% (whole cow milk; 2000 nM nominal).
`CNC(=O)C(CCN1CCC(O)(c2ccc(Cl)cc2)CC1)(c1ccccc1)c1ccccc1` — result for “unbound fraction in cells”: 0.029 (ultrafiltration; dog, cell homogenate; 1 µM).
`CN(C)CCCN1c2ccccc2Sc2ccc(Cl)cc21` gave a hepatocyte binding of 99% (human hepatocytes; concentration not given).
`CC(C)c1nc(N(C)S(C)(=O)=O)nc(-c2ccc(F)cc2)c1/C=C/[C@@H](O)C[C@@H](O)CC(=O)O` — result for “incidence of infections and infestations”: 0% (healthy human subjects; oral, dose not given, study CL-0537 safety set).
`CC(C)C[C@H](NC(=O)[C@H](CCCCN)NC(=O)OCC1c2ccccc2-c2ccccc21)C(=O)N[C@H](C(=O)N[C@@H](Cc1ccccc1)C(=O)N[C@@H](Cc1ccccc1)C(=O)N[C@@H](CCCCN)C(=O)NCC(=O)N[C@@H](Cc1ccccc1)C(=O)N[C@@H](C)C(=O)N[C@@H](Cc1c[nH]c2ccccc12)C(=O)N[C@@H](CC(N)=O)C(=O)N[C@H](C(=O)N[C@H]1CSSC[C@@H](C(=O)N[C@@H](Cc2c[nH]cn2)C(=O)N[C@@H](CCCNC(=N)N)C(=O)N[C@@H](CCCNC(=N)N)C(=O)N[C@@H](C)C(=O)N[C@@H](CC(N)=O)C(N)=O)NC(=O)[C@H](C(C)C)NC(=O)[C@H](CCCNC(=N)N)NC(=O)[C@H](C(C)C)NC(=O)CNC(=O)[C@H](CC(N)=O)NC(=O)[C@H](CCCNC(=N)N)NC(=O)[C@H](Cc2ccc(O)cc2)NC(=O)[C@H](C(C)C)NC1=O)C(C)C)C(C)C` gave a phosphorus of 3.27 ± 0.08 mmol/L (ICR mice, serum; intraperitoneal, 10 mg/kg, day 5).
`COc1cccc(Oc2ccccc2NC(=O)CNC(=O)c2cccc3ccccc23)c1` has a total bilirubin of 0.1 mg/dL (esterase-deficient SCID mice, male; oral, 40 mg/kg/day, 14 days, toxicity study).
`c1cc2ccc3cccc4ccc(c1)c2c34` gave a Vmax of 88.5 pmol/min/mg (metabolism; pooled human liver microsomes; pH 7.4).
`CCc1ccc(CC/C=C/c2ccc3c(c2)C(=O)CC3)cc1` has an HDW of 23.1 g/L (Sprague-Dawley rat, female; oral, 450 mg/kg/day, 14 days).
`O=C(O)CCCOc1ccc(F)cc1-c1cc(-c2ccccc2C(F)(F)F)n(-c2ccccc2)n1`: “relative organ weight” 0.22 ± 0.05 g% (female Crl:CD(SD) rats, uterus; intravenous, 25 µg/kg, 1 d).
`COc1ccc(-c2c(-c3ccc(C#N)c(F)c3)nc(N3CCC(N)CC3)n(C)c2=O)cc1F` — result for “serious adverse event incidence”: 2% (item: Constipation; human patients; oral, dose not given, dose escalation, NG).
For `N=C(N)NCCNC(=O)C1(Nc2ccccc2)CCN(Cc2ccccc2)CC1`, “elimination rate constant” read 0.00119 ± 0.000111 s⁻¹ (Sprague-Dawley rats, both sexes; oral, 50 mg/kg, mean of both sexes).

Some of these lines once more:
`CCc1ccc(CC/C=C/c2ccc3c(c2)C(=O)CC3)cc1` has an HDW of 23.1 g/L (Sprague-Dawley rat, female; oral, 450 mg/kg/day, 14 days).
`O=C(O)CCCOc1ccc(F)cc1-c1cc(-c2ccccc2C(F)(F)F)n(-c2ccccc2)n1`: “relative organ weight” 0.22 ± 0.05 g% (female Crl:CD(SD) rats, uterus; intravenous, 25 µg/kg, 1 d).
`COc1ccc(-c2c(-c3ccc(C#N)c(F)c3)nc(N3CCC(N)CC3)n(C)c2=O)cc1F` — result for “serious adverse event incidence”: 2% (item: Constipation; human patients; oral, dose not given, dose escalation, NG).
